Experimental data pooled from the literature.
B1: enzyme (Aspergillus nidulans, UniProt Q5AS09); chain MTRPIVVLGAGVLGRRIAAVLIAGGHTVHIRDPSTQALSDAASFIDAHLHEFTAITPTPHPVPGTYKAFAEISSAVAGAWLVIEAVPEKLSLKIDTFAEVDRHAPADCVIASNSSSFKSSLMVEKVGEQRKERVLNVHFTMPPQIRTVELMTNGQTRPELFESLSKMLKGCGMIPVTARKESTGFIFNRLWAAIKREIMLILAEDVSTPEEIDLLWTNMFQLPTSSPPCQLMDKIGLDTVAFIEDNYIQERGLDGSMTVDWLRKSYIDQGRLGLKSEKGGLYGPS
B2: enzyme S252E (Schizosaccharomyces pombe, UniProt P78804); chain MSTPYEPEFQQAYKEIVGSIESSKLFEVHPELKRVLPIISIPERVLEFRVTWEDDKGNCRVNTGYRVQFNSALGPYKGGLRFHPSVNLSILKFLGFEQIFKNALTGLPMGGGKGGSDFDPKGKSDNEIRRFSQAFMRQLFRYIGPQTDVPAGDIGVTGFVVMHMFGEYKRLRNEYSGVVTGKHMLTGGSNIRPEATGYGVVYYVKHMIEHRTKGAETLKGKRVAISGSGNVAQYAALKCIQEGAIVKSISDEKGVLIAKTAEGLVPEEIHEIMALKEKRASIADSASLCKKHHYIAGARPWTNVGEIDIALPCATQNEVSGEEAAALIKQGCRYVAEGSNMGSSAEAVEVFEKSRASGEGCWLAPGKAANAGGVAVSGLEMAQNAQFSTWTHAEVDAKLAGIMQNIFEQSTDVASKYCDSGSNNIPSLVDGANIAGFLKVATAMQAVGDWW
B3: enzyme (Sargassum horneri, UniProt A0A097IUG6); chain SPMAVASPSGFQKAMKTTLSSLGIDKATGITKPTTIYRNLPYPEVFKHEEQNKEGEVTKNGTFCVSTGQFTGRSPKDKYFVKQAPSDGKLDWGKINKGVASEVYKNIYDKAVKHYNTNVDKMYVFDGYCGTSPKSRKNVRIITELAWQHHFAKNMFIRPETEEEVANFVPDFTIINACKIVNEDYKELGLNSEVAVVFNVEESKAVITGTWYGGEMKKGIFSMMNYWLPLDGVMSMHCSANKGKDGDTALFFGLSGTGKTTLSADPARYLIGDDEHGWDDDGIFNFEGGCYAKTVNLSRENEPEIYDAIKRDALLENVIIKKNGEPDYADVSRTENTRVSYPIYHIDNYEPSGMGDHPKSIVFLTCDAFGVLPPVSRLSPGQAMYHFLSGYTAKVAGTERGVTEPTPNFSAGFGAAFLTLHPTVYADLLQEKLDKHGTQCFLINTGWTGGGYGVGKRMSIKATRACVDAVLDGSINKTKFTKEPVFGFEVPQELPNVPSKVLNPREAWSDKASYDATRTKLGDMFKNNFTKFVKPGMTDYTAYGPK
B4: gdh (Bacillus subtilis, UniProt P12310); chain MYPDLKGKVVAITGAASGLGKAMAIRFGKEQAKVVINYYSNKQDPNEVKEEVIKAGGEAVVVQGDVTKEEDVKNIVQTAIKEFGTLDIMINNAGLENPVPSHEMPLKDWDKVIGTNLTGAFLGSREAIKYFVENDIKGNVINMSSVHEVIPWPLFVHYAASKGGIKLMTETLALEYAPKGIRVNNIGPGAINTPINAEKFADPKQKADVESMIPMGYIGEPEEIAAVAAWLASKEASYVTGITLFADGGMTQYPSFQAGRG
B5: enzyme (Plasmodium falciparum, UniProt C0H484); chain MVREAHELLDGSRPIPIDKITYELSQNIILAFDNHENINNKDIQIEIEGRVGLVIDKNKNRIKLPINTDAIIENNYSDFQAGIDRESFEYLLDYFHNMTLKKRLSIRNNDNNNNNMDNNNNNMDNNNNIHIHNSGNNTNQTHSYDKNADDNKPTCNYSYDKKNACIYDFLELKTTKSIDKYYVIKNNNSRIRTTTYLNDDNKQETESMMIQSLQKDNLNIWNVYTGNNYDYFDDDEEDDDDDYNNNNNNNNGDTGTKTNIATNNTHGLTTSKSQHIYNNLVDKNDSIDYRISINIEYTKPISKLYLSKNTPVHERLKERTTFINTYLGLQVDMTKIKTKNNELYEVEIEIPSKTIFKAMSNLRNKKDSNYLHFICSNLVNNIRGICSQLNVFKKSKHMLKNTMITKLNNNSNNQNNLSLLPNHPNDDTISSKEKEKFKKYIHSVLPIVGDY
B6: Por W677G (Rattus norvegicus, UniProt P00388); chain GDSHEDTSATMPEAVAEEVSLFSTTDMVLFSLIVGVLTYWFIFRKKKEEIPEFSKIQTTAPPVKESSFVEKMKKTGRNIIVFYGSQTGTAEEFANRLSKDAHRYGMRGMSADPEEYDLADLSSLPEIDKSLVVFCMATYGEGDPTDNAQDFYDWLQETDVDLTGVKFAVFGLGNKTYEHFNAMGKYVDQRLEQLGAQRIFELGLGDDDGNLEEDFITWREQFWPAVCEFFGVEATGEESSIRQYELVVHEDMDVAKVYTGEMGRLKSYENQKPPFDAKNPFLAAVTANRKLNQGTERHLMHLELDISDSKIRYESGDHVAVYPANDSALVNQIGEILGADLDVIMSLNNLDEESNKKHPFPCPTTYRTALTYYLDITNPPRTNVLYELAQYASEPSEQEHLHKMASSSGEGKELYLSWVVEARRHILAILQDYPSLRPPIDHLCELLPRLQARYYSIASSSKVHPNSVHICAVAVEYEAKSGRVNKGVATSWLRAKEPAGENGGRALVPMFVRKSQFRLPFKSTTPVIMVGPGTGIAPFMGFIQERAWLREQGKEVGETLLYYGCRRSDEDYLYREELARFHKDGALTQLNVAFSREQAHKVYVQHLLKRDREHLWKLIHEGGAHIYVCGDARNMAKDVQNTFYDIVAEFGPMEHTQAVDYVKKLMTKGRYSLDVGS
B7: ADSL R303C (Homo sapiens, UniProt P30566); chain MAAGGDHGSPDSYRSPLASRYASPEMCFVFSDRYKFRTWRQLWLWLAEAEQTLGLPITDEQIQEMKSNLENIDFKMAAEEEKRLRHDVMAHVHTFGHCCPKAAGIIHLGATSCYVGDNTDLIILRNALDLLLPKLARVISRLADFAKERASLPTLGFTHFQPAQLTTVGKRCCLWIQDLCMDLQNLKRVRDDLRFRGVKGTTGTQASFLQLFEGDDHKVEQLDKMVTEKAGFKRAFIITGQTYTRKVDIEVLSVLASLGASVHKICTDIRLLANLKEMEEPFEKQQIGSSAMPYKRNPMRSECCCSLARHLMTLVMDPLQTASVQWFERTLDDSANRRICLAEAFLTADTILNTLQNISEGLVVYPKVIERRIRQELPFMATENIIMAMVKAGGSRQDCHEKIRVLSQQAASVVKQEGGDNDLIERIQVDAYFSPIHSQLDHLLDPSSFTGRASQQVQRFLEEEVYPLLKPYESVMKVKAELCL
UniProt Q6LX40, sequence (whole entry, looked up): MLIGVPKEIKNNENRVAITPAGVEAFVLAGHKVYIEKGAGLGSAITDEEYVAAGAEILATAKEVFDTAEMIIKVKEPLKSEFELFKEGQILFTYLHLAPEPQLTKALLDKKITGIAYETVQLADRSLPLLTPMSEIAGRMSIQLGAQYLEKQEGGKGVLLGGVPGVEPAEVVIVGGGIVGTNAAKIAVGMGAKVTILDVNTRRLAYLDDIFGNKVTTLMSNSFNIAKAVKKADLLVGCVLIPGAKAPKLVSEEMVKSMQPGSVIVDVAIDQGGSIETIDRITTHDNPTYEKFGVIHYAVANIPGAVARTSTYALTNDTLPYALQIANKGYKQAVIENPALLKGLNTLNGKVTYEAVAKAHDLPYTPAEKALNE
UniProt Q8ZKF6, sequence (whole entry, looked up): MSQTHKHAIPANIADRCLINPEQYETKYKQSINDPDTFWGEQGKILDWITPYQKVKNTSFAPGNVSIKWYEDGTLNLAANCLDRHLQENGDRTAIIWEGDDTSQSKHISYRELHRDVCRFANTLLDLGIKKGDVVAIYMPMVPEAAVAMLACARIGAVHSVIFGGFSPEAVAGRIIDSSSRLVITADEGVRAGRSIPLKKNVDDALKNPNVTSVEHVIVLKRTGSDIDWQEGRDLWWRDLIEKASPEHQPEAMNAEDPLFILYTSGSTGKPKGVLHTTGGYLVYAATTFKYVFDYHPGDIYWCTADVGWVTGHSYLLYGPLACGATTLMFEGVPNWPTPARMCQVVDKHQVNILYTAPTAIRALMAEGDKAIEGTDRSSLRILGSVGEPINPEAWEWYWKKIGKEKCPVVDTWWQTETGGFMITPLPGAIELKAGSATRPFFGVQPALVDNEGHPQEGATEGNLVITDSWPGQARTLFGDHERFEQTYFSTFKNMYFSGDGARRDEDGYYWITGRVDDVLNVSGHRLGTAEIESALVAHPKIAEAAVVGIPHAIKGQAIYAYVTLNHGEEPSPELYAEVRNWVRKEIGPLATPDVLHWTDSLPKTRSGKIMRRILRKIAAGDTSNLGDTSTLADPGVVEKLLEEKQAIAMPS

`B1 (enzyme)` has a Km of 60 µM (CCCCCCC[C@@H](O)CC(=O)O; steady-state kinetics; with: NAD+).
The Km of `B2 (enzyme S252E)` is reported as 220 µM (NC(=O)c1ccc[n+]([C@@H]2O[C@H](COP(=O)(O)OP(=O)(O)OC[C@H]3O[C@@H](n4cnc5c(N)ncnc54)[C@H](OP(=O)(O)O)[C@@H]3O)[C@@H](O)[C@H]2O)c1; steady-state kinetics; pH 7, 30 °C, apparent).
The Km of `B3 (enzyme)` is reported as 700 µM (C=C(OP(=O)(O)O)C(=O)O; steady-state kinetics; pH 6.5, 25 °C, with: 2 mM ADP).
With `GSGAGIESNV` the binding intensity was 0.56 (human SCRIB PDZ3-4 tandem (MBP fusion); automated holdup; peptide, purified PDZ protein; concentration not given, unit not given; relative to: biotin control resin, higher = stronger binding).
`enzyme (UniProt A0A1H9C520)` gave a Km of 7510 µM (OC[C@@H](O)[C@@H](O)[C@H](O)[C@@H](O)CO; steady-state kinetics; pH 8, 37 °C).
With `acs (Salmonella enterica, UniProt Q8ZKF6)` the Km was 311 µM (CCC(=O)O; steady-state kinetics; pH 7, 30 °C, apparent).
With `B4 (gdh)` the Km was 1950 µM (NC(=O)c1ccc[n+]([C@@H]2O[C@H](COP(=O)(O)OP(=O)(O)OC[C@H]3O[C@@H](n4cnc5c(N)ncnc54)[C@H](O)[C@@H]3O)[C@@H](O)[C@H]2O)c1; steady-state kinetics; pH 8, 50 °C).
`B5 (enzyme)` gave a Km of 17 µM (O=P(O)(O)OP(=O)(O)OP(=O)(O)OC[C@H]1O[C@@H](n2cnc3c(O)ncnc32)[C@H](O)[C@@H]1O; steady-state kinetics; with: Mn2+).
`B6 (Por W677G)` gave a Km of 101 µM (NC(=O)C1=CN([C@@H]2O[C@H](COP(=O)(O)OP(=O)(O)OC[C@H]3O[C@@H](n4cnc5c(N)ncnc54)[C@H](O)[C@@H]3O)[C@@H](O)[C@H]2O)C=CC1; steady-state kinetics; with: cytochrome c).
The binding intensity of `PKRSFIESNV` is reported as -0.118 (human MAGI1-3/6 PDZ construct (MBP fusion); automated holdup; peptide, purified PDZ protein; concentration not given, unit not given; relative to: biotin control resin, higher = stronger binding).
The Km of `enzyme (Methanococcus maripaludis, UniProt Q6LX40)` is reported as 160 µM (NC(=O)c1ccc[n+]([C@@H]2O[C@H](COP(=O)(O)OP(=O)(O)OC[C@H]3O[C@@H](n4cnc5c(N)ncnc54)[C@H](O)[C@@H]3O)[C@@H](O)[C@H]2O)c1; steady-state kinetics).
For `B7 (ADSL R303C)`, the Km was 2.4 µM (O=C(O)C[C@H](Nc1ncnc2c1ncn2[C@@H]1O[C@H](COP(=O)(O)O)[C@@H](O)[C@H]1O)C(=O)O; steady-state kinetics; pH 7.4, 25 °C).

Repeated from above:
With `B4 (gdh)` the Km was 1950 µM (NC(=O)c1ccc[n+]([C@@H]2O[C@H](COP(=O)(O)OP(=O)(O)OC[C@H]3O[C@@H](n4cnc5c(N)ncnc54)[C@H](O)[C@@H]3O)[C@@H](O)[C@H]2O)c1; steady-state kinetics; pH 8, 50 °C).
